Results of several laboratories.
Parts stem from different laboratories: compare values within a part only.
Chain of UniProt P42336 (whole entry, unmodified, looked up): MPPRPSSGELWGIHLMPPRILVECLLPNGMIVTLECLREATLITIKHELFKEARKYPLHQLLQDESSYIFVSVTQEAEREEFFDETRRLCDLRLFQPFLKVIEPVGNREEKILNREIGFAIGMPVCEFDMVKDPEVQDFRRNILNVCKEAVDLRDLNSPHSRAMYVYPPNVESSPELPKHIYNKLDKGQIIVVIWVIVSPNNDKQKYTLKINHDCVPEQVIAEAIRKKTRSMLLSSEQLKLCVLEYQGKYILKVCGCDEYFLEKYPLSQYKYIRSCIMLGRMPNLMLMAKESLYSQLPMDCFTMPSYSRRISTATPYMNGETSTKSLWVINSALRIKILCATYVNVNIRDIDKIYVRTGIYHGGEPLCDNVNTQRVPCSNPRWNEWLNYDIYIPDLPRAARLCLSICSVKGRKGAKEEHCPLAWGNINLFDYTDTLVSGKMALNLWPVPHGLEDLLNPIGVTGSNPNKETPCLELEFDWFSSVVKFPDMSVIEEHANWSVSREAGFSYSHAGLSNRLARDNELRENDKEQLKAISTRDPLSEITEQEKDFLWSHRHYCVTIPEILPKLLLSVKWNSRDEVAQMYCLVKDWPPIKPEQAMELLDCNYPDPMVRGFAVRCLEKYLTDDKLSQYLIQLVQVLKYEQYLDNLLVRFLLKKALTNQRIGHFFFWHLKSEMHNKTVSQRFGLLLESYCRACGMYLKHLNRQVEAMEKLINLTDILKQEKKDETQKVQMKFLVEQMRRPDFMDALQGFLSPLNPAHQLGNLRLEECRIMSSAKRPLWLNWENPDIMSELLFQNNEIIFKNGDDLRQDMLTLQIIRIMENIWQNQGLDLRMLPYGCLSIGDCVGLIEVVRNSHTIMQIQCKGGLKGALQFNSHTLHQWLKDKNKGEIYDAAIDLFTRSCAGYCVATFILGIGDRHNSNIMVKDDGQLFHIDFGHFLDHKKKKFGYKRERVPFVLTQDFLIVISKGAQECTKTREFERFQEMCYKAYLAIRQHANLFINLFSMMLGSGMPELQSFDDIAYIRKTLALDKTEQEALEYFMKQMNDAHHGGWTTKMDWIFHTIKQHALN
Chain of UniProt O75747 (whole entry, looked up): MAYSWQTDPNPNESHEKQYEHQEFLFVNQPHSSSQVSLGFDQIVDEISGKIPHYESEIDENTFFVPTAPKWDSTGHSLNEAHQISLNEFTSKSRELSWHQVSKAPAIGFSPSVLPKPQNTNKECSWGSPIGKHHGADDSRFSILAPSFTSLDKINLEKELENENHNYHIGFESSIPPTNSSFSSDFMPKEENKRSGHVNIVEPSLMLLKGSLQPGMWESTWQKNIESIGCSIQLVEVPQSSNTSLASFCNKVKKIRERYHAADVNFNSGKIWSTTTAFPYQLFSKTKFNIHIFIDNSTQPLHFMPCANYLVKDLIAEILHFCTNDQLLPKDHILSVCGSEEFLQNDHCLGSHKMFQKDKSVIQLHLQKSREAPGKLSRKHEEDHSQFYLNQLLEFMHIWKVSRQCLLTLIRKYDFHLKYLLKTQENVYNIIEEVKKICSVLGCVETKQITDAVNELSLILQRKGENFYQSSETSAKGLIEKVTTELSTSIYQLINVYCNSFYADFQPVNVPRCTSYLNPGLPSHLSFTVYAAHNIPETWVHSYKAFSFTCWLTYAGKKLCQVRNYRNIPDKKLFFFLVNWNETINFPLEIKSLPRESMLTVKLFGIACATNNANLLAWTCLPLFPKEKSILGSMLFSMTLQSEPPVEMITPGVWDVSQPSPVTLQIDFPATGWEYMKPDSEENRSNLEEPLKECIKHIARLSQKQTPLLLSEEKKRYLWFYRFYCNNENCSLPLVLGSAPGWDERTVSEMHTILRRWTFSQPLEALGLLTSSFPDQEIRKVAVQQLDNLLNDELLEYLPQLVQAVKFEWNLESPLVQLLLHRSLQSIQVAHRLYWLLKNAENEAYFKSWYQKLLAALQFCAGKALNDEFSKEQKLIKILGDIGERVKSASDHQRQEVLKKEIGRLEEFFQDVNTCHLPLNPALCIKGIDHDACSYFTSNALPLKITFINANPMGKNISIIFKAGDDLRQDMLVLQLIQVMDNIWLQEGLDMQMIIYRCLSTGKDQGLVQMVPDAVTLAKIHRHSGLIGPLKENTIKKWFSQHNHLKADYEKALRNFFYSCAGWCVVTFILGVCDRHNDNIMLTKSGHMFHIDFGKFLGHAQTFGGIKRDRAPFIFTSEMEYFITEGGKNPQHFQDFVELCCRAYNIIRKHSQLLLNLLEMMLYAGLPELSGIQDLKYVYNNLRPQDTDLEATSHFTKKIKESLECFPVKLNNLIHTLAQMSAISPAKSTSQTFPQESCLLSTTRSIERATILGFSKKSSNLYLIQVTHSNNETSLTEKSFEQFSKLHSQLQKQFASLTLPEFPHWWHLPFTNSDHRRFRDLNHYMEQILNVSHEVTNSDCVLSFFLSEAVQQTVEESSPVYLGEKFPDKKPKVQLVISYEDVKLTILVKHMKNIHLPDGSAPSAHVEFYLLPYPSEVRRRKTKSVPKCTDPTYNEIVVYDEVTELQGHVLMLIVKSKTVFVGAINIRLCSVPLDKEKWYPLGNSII
Chain of UniProt Q15759 (whole entry, looked up): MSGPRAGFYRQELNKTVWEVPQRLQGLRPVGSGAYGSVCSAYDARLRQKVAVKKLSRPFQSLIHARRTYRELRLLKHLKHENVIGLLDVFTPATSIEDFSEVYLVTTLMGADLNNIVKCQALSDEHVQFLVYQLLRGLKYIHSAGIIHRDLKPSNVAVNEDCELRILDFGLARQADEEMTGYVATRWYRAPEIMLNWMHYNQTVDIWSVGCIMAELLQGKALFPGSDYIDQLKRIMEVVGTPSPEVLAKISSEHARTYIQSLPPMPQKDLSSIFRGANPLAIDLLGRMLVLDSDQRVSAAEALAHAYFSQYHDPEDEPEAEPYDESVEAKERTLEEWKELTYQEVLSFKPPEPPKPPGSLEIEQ
Chain of UniProt Q8NEV4 (whole entry, looked up): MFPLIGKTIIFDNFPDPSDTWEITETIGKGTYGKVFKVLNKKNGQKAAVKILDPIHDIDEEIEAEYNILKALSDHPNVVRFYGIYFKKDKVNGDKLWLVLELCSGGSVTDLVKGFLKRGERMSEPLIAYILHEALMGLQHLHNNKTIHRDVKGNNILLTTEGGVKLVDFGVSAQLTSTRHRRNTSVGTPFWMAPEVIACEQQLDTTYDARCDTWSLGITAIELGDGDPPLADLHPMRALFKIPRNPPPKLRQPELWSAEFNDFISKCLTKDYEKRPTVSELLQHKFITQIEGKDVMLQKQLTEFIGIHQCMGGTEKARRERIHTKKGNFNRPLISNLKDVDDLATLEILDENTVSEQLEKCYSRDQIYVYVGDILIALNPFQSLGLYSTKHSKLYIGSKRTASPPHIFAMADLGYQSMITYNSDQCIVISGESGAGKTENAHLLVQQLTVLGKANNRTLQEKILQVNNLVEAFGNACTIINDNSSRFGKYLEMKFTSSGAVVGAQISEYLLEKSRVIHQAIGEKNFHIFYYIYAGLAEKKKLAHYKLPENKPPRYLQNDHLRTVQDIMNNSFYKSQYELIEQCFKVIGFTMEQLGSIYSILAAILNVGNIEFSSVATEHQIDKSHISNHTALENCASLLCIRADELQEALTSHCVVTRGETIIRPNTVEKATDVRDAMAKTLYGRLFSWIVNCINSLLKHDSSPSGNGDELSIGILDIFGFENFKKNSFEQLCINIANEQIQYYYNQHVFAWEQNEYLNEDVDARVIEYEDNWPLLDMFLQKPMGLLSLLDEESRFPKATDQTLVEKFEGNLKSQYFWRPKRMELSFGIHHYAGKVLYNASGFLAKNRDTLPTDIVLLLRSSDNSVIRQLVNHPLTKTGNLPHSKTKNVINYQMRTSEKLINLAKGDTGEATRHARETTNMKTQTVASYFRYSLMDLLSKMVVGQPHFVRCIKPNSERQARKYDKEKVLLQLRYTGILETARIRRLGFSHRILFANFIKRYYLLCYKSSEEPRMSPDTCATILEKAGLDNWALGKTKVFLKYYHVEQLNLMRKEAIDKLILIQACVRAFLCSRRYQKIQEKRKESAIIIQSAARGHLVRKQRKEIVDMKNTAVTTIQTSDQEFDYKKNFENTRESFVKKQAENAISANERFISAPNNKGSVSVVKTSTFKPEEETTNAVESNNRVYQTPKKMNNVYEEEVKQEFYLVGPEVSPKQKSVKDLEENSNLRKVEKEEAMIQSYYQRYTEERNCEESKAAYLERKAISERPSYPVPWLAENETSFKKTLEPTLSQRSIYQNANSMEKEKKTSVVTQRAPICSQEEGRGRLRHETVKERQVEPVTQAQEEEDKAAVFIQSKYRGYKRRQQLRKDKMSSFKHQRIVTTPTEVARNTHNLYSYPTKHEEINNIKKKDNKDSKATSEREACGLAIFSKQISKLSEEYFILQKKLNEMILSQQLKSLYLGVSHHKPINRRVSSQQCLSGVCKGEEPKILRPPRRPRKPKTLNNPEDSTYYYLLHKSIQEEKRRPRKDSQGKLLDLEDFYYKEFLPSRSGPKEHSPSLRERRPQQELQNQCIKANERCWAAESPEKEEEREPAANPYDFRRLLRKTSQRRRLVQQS

Set 1
Organism: Sarcocystis neurona
Observed: parasite growth
Concentration: 10 µM
Time: 96 h
Setting: first screen
Reference: untreated
Compound	log2 fold change
CC(=O)[C@H]1CC[C@H]2[C@@H]3CCC4=CC(=O)CC[C@]4(C)[C@H]3CC[C@]12C	-0.47
CC#C[C@]1(O)CC[C@H]2[C@@H]3CCC4=CC(=O)CCC4=C3[C@@H](c3ccc(N(C)C)cc3)C[C@@]21C	-0.12
COc1ccc(C2CNC(=O)C2)cc1OC1CCCC1 (stereo not drawn)	-0.02
CC[C@H](C)C(=O)O[C@H]1C[C@@H](C)C=C2C=C[C@H](C)[C@H](CC[C@@H]3C[C@@H](O)CC(=O)O3)[C@H]21	0.074
Cc1ccc(-c2cc(C(F)(F)F)nn2-c2ccc(S(N)(=O)=O)cc2)cc1	0.07
NC(=O)c1ncn([C@@H]2O[C@H](CO)[C@@H](O)[C@H]2O)n1	0.18
O=C(c1ccccc1)c1ccc2n1CCC2C(=O)O (stereo not drawn)	0.3

Set 2
Target: Beta-1 adrenergic receptor (ADRB1, Homo sapiens, UniProt P08588)
Chain of UniProt P08588 (whole entry, looked up): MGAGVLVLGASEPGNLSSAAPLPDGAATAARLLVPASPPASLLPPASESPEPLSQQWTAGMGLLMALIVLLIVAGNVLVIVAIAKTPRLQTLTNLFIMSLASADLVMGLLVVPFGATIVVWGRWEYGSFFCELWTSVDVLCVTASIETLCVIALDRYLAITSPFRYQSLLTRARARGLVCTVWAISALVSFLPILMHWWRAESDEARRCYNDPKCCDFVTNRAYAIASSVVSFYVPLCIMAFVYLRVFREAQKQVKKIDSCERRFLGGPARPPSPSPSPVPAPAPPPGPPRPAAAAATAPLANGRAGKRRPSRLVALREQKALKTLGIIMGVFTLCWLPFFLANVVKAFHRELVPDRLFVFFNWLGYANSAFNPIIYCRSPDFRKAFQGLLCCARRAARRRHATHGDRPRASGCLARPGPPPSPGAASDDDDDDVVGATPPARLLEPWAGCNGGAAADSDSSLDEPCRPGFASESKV
Mode: agonist
Structure (SMILES)	EC50 [µM]
O=C1c2cnc(-c3ccccc3F)nc2OCCN1c1cccc(C(F)(F)F)c1	≥ 100
COc1ccccc1C(=O)Nc1ccc(C(O)[C@H]2COCC(=O)N2)cc1 (stereo partly drawn)	≥ 100
COc1ccccc1CN[C@H]1[C@H](O)[C@@H](N2CCN(c3ccccc3OC)CC2)[C@@H]2OC[C@H]1O2	≥ 100
Cc1noc2c(N(C)C)cc(-c3ccc(Cl)cc3)nc12	≥ 100

Set 3
Compound: CC(C)n1cnc(-c2ccc(F)cc2)c1-c1ncc(C(=O)Nc2ccc(N3CCN(C)CC3)cc2)[nH]1
Technique: phase 2a clinical trial
Host: patients with idiopathic pulmonary fibrosis
assay	setting	patients with treatment-emergent adverse events
refers to: left ventricular dysfunction	60 mg once daily, Grade 4	0%
refers to: protein urine present	30 mg once daily, Grade 3	0%
refers to: lumbar vertebral fracture	dose not given, Grade 1, maximum intensity, all drug arms total	0%
refers to: electrocardiogram T wave abnormal	60 mg once daily, Grade 2	0%
refers to: investigations (SOC)	30 mg once daily, Grade 5	0%
refers to: electrocardiogram QT prolonged	dose not given, Grade 4, all drug arms total	0%

Set 4
Structure (SMILES): C[C@H](c1cccc(C#N)c1)n1cc(Cl)cc(C(N)=O)c1=N
Observed: cell-free assay
Technique: competition with immobilised ligand
Concentration: 1 µM
target	remaining binding [%]
Serine/threonine-protein kinase D1 (PRKD1, Homo sapiens, UniProt Q15139)	100
1-phosphatidylinositol 3-phosphate 5-kinase (PIKFYVE, Homo sapiens, UniProt Q9Y2I7)	91
Myosin-IIIa (MYO3A, Homo sapiens, UniProt Q8NEV4)	100
Mitogen-activated protein kinase 11 (MAPK11, Homo sapiens, UniProt Q15759)	100
Phosphatidylinositol 4,5-bisphosphate 3-kinase catalytic subunit alpha isoform (PIK3CA, Homo sapiens, UniProt P42336, H1047L)	92
Phosphatidylinositol 4,5-bisphosphate 3-kinase catalytic subunit alpha isoform (PIK3CA, Homo sapiens, UniProt P42336, I800L)	56
STE20-like serine/threonine-protein kinase (SLK, Homo sapiens, UniProt Q9H2G2)	100
Casein kinase II subunit alpha' (CSNK2A2, Homo sapiens, UniProt P19784)	100
Phosphatidylinositol 3-kinase C2 domain-containing subunit gamma (PIK3C2G, Homo sapiens, UniProt O75747)	88
Bone morphogenetic protein receptor type-2 (BMPR2, Homo sapiens, UniProt Q13873)	97
NUAK family SNF1-like kinase 2 (NUAK2, Homo sapiens, UniProt Q9H093)	91
Phosphatidylinositol 4,5-bisphosphate 3-kinase catalytic subunit alpha isoform (PIK3CA, Homo sapiens, UniProt P42336, M1043I)	100
Dual specificity tyrosine-phosphorylation-regulated kinase 2 (DYRK2, Homo sapiens, UniProt Q92630)	84
Serine/threonine-protein kinase PLK3 (PLK3, Homo sapiens, UniProt Q9H4B4)	83
Tyrosine-protein kinase TXK (TXK, Homo sapiens, UniProt P42681)	85
Cyclin-dependent kinase 17 (CDK17, Homo sapiens, UniProt Q00537)	91

Repeated from above (set 4):
target	remaining binding [%]
NUAK family SNF1-like kinase 2 (NUAK2, Homo sapiens, UniProt Q9H093)	91
Tyrosine-protein kinase TXK (TXK, Homo sapiens, UniProt P42681)	85
Phosphatidylinositol 4,5-bisphosphate 3-kinase catalytic subunit alpha isoform (PIK3CA, Homo sapiens, UniProt P42336, H1047L)	92
Serine/threonine-protein kinase PLK3 (PLK3, Homo sapiens, UniProt Q9H4B4)	83
